Experimental data from different studies.
Numbered parts are unrelated; each lists some results of a single study.
Chain of UniProt Q38825 (whole entry, looked up): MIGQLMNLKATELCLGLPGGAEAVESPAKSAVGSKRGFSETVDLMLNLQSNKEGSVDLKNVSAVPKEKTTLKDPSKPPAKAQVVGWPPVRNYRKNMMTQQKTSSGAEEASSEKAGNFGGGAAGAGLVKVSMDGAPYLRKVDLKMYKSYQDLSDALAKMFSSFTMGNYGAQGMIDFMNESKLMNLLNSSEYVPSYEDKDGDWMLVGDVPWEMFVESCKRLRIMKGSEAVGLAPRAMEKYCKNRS
Chain of UniProt Q93YR9 (whole entry, looked up): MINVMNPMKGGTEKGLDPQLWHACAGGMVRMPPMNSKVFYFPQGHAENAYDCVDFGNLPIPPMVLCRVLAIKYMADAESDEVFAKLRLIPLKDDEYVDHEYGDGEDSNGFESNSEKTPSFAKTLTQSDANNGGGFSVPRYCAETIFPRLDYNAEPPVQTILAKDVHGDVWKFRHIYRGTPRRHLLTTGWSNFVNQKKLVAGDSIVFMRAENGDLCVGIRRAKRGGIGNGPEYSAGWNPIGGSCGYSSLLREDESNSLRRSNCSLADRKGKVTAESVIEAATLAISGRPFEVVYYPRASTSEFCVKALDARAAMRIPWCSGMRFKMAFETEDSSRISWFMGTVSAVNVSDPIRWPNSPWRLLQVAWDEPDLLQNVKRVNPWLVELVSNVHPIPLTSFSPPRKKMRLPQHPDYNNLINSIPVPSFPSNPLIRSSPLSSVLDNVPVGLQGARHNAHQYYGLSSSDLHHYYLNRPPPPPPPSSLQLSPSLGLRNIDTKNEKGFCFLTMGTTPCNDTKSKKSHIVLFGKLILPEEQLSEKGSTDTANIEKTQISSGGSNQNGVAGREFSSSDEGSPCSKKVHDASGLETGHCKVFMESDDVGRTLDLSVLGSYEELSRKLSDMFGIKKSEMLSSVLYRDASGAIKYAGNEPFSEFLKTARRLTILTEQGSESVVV
Chain of UniProt Q38832 (whole entry, looked up): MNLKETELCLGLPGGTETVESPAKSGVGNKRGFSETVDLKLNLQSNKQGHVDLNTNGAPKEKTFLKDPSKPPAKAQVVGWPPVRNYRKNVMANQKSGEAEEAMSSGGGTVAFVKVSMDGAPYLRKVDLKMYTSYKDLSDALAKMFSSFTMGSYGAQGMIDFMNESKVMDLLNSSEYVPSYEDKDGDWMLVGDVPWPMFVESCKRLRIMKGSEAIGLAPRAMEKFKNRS
Chain of UniProt Q8L7G0 (whole entry, looked up): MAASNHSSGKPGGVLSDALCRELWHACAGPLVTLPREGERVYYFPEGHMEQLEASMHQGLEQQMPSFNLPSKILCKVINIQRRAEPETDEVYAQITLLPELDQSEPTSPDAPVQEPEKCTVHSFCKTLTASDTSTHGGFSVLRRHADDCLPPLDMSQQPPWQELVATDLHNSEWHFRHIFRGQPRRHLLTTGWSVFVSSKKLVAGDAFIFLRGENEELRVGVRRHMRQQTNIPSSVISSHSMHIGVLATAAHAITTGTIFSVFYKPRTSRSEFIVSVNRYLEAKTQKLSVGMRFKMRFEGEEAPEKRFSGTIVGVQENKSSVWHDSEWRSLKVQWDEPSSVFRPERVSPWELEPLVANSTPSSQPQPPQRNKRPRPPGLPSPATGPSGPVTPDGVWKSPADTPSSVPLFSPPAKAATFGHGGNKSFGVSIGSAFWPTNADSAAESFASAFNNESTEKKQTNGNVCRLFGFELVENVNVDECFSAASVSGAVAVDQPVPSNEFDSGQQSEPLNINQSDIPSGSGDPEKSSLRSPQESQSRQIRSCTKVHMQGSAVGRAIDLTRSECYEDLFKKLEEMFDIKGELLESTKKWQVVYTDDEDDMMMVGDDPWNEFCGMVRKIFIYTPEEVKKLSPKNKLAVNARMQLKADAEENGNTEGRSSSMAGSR
Chain of UniProt Q8RYC8 (whole entry, looked up): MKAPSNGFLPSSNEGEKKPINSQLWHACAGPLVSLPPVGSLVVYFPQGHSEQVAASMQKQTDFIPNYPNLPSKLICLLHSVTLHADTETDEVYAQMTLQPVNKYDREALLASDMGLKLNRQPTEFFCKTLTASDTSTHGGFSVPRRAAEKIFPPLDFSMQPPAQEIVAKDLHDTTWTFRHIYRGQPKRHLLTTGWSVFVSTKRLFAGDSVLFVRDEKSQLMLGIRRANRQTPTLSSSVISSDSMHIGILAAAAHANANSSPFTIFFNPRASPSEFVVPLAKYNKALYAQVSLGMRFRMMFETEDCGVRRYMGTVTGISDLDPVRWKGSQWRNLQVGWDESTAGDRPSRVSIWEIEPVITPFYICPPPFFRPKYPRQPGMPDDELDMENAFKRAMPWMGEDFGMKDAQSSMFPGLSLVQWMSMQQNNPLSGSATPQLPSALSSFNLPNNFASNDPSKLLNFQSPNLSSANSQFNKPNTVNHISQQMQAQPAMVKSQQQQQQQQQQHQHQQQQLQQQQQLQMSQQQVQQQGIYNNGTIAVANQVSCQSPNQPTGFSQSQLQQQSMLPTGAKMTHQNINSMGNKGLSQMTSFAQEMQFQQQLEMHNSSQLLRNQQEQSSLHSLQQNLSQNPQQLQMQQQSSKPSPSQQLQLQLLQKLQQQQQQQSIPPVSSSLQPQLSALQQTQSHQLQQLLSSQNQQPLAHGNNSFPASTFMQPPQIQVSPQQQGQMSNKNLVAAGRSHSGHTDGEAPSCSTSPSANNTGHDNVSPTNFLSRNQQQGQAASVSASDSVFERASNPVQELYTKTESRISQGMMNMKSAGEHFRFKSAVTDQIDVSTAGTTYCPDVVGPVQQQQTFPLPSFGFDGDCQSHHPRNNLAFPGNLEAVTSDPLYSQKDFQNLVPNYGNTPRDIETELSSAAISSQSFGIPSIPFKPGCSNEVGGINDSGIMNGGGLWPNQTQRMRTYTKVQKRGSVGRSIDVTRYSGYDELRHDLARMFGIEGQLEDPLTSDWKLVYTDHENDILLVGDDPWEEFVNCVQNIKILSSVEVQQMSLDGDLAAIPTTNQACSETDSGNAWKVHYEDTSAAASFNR
Chain of UniProt O23661 (whole entry, looked up): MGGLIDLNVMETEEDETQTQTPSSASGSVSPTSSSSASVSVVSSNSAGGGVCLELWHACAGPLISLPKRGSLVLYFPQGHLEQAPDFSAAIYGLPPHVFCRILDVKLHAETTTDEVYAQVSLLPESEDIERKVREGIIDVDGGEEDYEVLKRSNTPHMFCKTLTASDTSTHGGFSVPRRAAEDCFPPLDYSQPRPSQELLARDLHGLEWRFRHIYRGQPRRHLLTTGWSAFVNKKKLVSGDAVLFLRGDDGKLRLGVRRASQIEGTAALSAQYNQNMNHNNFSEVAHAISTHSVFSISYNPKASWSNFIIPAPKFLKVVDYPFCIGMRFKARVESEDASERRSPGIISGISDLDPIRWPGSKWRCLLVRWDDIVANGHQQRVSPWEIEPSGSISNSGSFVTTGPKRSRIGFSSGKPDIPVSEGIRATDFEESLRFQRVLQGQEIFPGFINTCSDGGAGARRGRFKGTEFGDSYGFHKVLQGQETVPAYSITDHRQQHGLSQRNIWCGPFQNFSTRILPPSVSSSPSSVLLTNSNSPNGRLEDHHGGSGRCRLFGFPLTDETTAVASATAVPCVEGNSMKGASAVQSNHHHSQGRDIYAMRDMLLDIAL
Chain of UniProt Q84WU6 (whole entry, looked up): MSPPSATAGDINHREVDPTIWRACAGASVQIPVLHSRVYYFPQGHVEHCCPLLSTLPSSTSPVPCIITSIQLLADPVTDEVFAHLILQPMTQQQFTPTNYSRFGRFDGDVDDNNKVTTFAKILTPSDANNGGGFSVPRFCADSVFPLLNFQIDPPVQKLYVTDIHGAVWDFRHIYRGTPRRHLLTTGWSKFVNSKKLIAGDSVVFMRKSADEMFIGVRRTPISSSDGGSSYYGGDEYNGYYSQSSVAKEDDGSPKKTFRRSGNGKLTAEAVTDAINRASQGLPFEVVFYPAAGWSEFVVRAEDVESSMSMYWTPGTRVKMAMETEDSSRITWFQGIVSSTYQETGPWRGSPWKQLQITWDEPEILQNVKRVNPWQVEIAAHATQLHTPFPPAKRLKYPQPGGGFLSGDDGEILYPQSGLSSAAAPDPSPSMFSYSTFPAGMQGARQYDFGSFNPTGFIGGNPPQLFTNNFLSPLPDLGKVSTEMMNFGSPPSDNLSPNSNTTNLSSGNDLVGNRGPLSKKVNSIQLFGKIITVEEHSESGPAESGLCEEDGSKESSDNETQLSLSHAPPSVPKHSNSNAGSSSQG

Block 1 — Molecule: B1 (IAA3); technique: two-hybrid; relative to: out of 4 tests; reading: higher = firmer interaction; endpoint: positive tests
B1: IAA3 (Arabidopsis thaliana, UniProt Q38822); chain MDEFVNLKETELRLGLPGTDNVCEAKERVSCCNNNNKRVLSTDTEKEIESSSRKTETSPPRKAQIVGWPPVRSYRKNNIQSKKNESEHEGQGIYVKVSMDGAPYLRKIDLSCYKGYSELLKALEVMFKFSVGEYFERDGYKGSDFVPTYEDKDGDWMLIGDVPWEMFICTCKRLRIMKGSEAKGLGCGV
ETT (Arabidopsis thaliana, UniProt O23661): 0
IAA14 (Arabidopsis thaliana, UniProt Q38832): 4
IAA17 (Arabidopsis thaliana, UniProt P93830): 4
ARF16 570-670 (Arabidopsis thaliana, UniProt Q93YR9): 0
IAA7 (Arabidopsis thaliana, UniProt Q38825): 1
ARF1 538-665 (Arabidopsis thaliana, UniProt Q8L7G0): 0
ARF19 948-1086 (Arabidopsis thaliana, UniProt Q8RYC8): 4
ARF17 (Arabidopsis thaliana, UniProt Q84WU6); weak activation fusion: 0

Block 2 — technique: universal PBM; molecule type: double-stranded DNA, one strand shown; matrix: in vitro; tested at: not given; reading: higher = stronger binding; endpoint: E-score
Target: Sal-like protein 4, full length isoform B (SALL4, Homo sapiens, UniProt Q9UJQ4-2, residues 1-616)
Notes: 8-mer, flanks averaged, mean of replicates
Construct (chain): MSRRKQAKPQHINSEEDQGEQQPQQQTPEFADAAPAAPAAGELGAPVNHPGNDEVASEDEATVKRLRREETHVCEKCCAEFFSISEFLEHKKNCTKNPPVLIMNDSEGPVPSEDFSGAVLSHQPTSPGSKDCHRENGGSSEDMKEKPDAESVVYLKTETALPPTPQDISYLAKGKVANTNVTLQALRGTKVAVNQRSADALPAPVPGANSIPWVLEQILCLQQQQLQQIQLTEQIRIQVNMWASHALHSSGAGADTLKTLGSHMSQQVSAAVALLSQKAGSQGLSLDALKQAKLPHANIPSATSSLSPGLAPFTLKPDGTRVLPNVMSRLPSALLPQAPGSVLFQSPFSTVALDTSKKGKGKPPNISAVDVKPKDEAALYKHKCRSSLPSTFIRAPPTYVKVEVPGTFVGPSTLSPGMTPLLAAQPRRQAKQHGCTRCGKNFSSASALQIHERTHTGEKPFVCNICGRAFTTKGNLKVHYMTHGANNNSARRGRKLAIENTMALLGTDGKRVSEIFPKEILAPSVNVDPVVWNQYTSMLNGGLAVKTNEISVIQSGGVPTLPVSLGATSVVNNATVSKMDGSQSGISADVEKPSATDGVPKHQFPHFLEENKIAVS
AGAGTCCC: -0.192
AGGCCCCG: -0.386
CTGACCTA: -0.0325
CTCTAAGC: -0.0465
ATGGCGCA: -0.074
CTTGATGC: -0.0807
GGTCCAGA: -0.197
GCGTGGAC: -0.216
ACAGCATC: -0.00729
GAACTCAA: -0.0729
CCATTTTC: 0.158
CTATGAGA: 0.139
ATGATGGA: 0.132
AAGCCGGG: -0.316
CAGACACC: -0.0872
CGACCAGC: -0.188
CCTAAGCG: -0.145
AAACATCG: -0.18
ACGGAGAA: 0.0398
ACAGCTGT: -0.176
ATCCCTGG: -0.179
ACGGATTC: -0.0509
CACCTCGG: -0.207
AGATGGCC: -0.262
GCTCATAC: 0.0681

Block 3 — technique: RNA Bind-n-Seq; molecule type: RNA; matrix: in vitro; tested at: 365 nM; relative to: no-protein control; reading: higher = stronger binding; endpoint: RBNS enrichment (R)
Target: RNA binding protein fox-1 homolog 2, RRM domain, GST-SBP tag (RBFOX2, Homo sapiens, UniProt O43251-10, residues 100-194)
Notes: natural RNA segment, single round, ends assumed
Construct (chain): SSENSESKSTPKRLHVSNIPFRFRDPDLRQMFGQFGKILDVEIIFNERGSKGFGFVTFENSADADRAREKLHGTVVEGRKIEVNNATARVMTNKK
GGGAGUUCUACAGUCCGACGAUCGGAGUCGGAGCCCUGGGUCCGAAUGGACCCGCCUGCGGUCUGCAUCAGCCUCUGGGAAACCACAGCAGUGAUGCCAGCUGGGCACGUCAGGACCUCCCCACACACCCACAUGGAAUUCUCGGGUGCCAA: 0.725
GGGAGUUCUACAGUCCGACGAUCGUGUAUCUGUACUCUCUGCAGAUGGUCCAAAAUUGUAAUGGAGUCUGUAUUAGAAGAAAAUAAGGGUAAAAUCAGGCUGAACUGCAUGUAUAUGGCUCCACUGUGGCUUGUGGAAUUCUCGGGUGCCAA: 13.5
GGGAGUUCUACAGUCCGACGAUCUUUGUAUGUUUAGUUUUGUGUCUCGUAACAGUGUUCACAUUUGUGAUUCUGAUGUCAGUAUUGUGUCACCUGAGCGGGAUGAUUACCUGAGUACCAUAGGAACUUUGUACUGGAAUUCUCGGGUGCCAA: 0.321
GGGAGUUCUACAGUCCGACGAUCGCCUACCCAUGGGCCCAAGUUUCUGUGGCUCAUUACAGGGCAUCUGACCCCUGCCACCCAGCAUAGACACACCUCACAGCUGCCCUGCCAUGCAGAGCCCUGGCCGCUGGUGGAAUUCUCGGGUGCCAA: 0.211
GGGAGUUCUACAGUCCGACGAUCAUUUAACUUCUAAUUCAGUAUGAUGCUGGUUUCAUACUGGCAAAUGGUUCCCCACUCUAAUUCCAUUACUGAAGAUUAAGCCCAGGCAGGGACUUGCUCAUUCUAGGCAAUGGAAUUCUCGGGUGCCAA: 0.358
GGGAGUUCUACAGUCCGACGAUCCAUCCUUGUAAUACCUGAUUGAUCACACAGUGUUAGUGCUGGUCAGAGAGACCUCAUCCUGCUCUUUUGUGAUGAACAUAUUCAUGAAAUGUGGAAGUCAGUACGAUCAAUGGAAUUCUCGGGUGCCAA: 0.259
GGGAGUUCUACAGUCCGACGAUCAGUGCUGGACUUGGCCAUGGGUAGUCUGCAGCUCAAUUUAUAGAACAGUCCAAAGAGACUUUGCAAAACAUGAUAGGCAGGGACCUUUUCCUCUGUGUUUCAAUACCUAUUGGAAUUCUCGGGUGCCAA: 0.57
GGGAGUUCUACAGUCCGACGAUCAUUUUGGAUAUAUAAAUUCCUUAAGCUAUUGUAACCAUGUUUUAUUGCAAAGAUGUAAAAUAUGCCAGAUGUGUGUGAGUUGGAAAUCAAAAAAAGAAAAAUAAAAUAUGUGGAAUUCUCGGGUGCCAA: 0.822
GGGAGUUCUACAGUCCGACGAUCGCUUGACUAACAGUCGAGGCAGUGAACUGGGUGUAGAAAGCGUCAGGAAAUGGCCACAUGUGUGGAUGGUUUAAUUAGAUUCUGUGGAGUCUCACAGUGGGAUUGUGGUUUGGAAUUCUCGGGUGCCAA: 1.25
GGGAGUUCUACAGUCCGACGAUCUGGCUGGUGUUGGUGACCCUGAUGUAUGGCAGAGCCCUUGGGGAGAAGAGACCCUGAGGGAAGGGCAAGGCUUUUCCUUUUUGGCUCUGGUUCCCAGGGUCAUCCGCCUUUGGAAUUCUCGGGUGCCAA: 0.407
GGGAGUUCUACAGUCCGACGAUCUCGUUUGCGUUGAGAAUUGGCAUGCAGUGUGUGUGAGCCGAGGGCCUCCUCAGUGUUCCACAAGCUUCAGGUCAUCAGGUCGGUCCAACUGAAGGCAUGAAAAUCAAGUGUGGAAUUCUCGGGUGCCAA: 4.54
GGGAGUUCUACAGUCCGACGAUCCUGCGGAAGUGGAAGGUGGAACUCUAGCCCUGAAGUCACGCCUUGGCCCUGACAUCCCCACAUGCCCGCAGAGAUCCUCUUUGAGUGUCUGUCUUUGUCCAGGUUUCAGAUGGAAUUCUCGGGUGCCAA: 0.419

Block 4 — technique: RNAcompete; molecule type: RNA; matrix: in vitro; tested at: 20 nM; notes: 7-mer, probes averaged, single round; relative to: mean of 7-mers; reading: higher = stronger binding; endpoint: 7-mer Z-score
Target: PABPC1L2, full length, GST fusion (mouse, UniProt A0ABA7IW68)
UGUCCCU: -0.34
ACUCUAA: 0.095
AAUUCAU: -0.0627
GGGGAUC: 0.305
UGUCGAG: -0.162
UUUCGGA: -0.137
AGAGUUA: -0.173
CGUUCCG: -0.411
GCGUGUC: -0.329
CCAUAUA: -0.179
AGAAGAA: 0.541
GUAGGAG: -0.148
GCAUAGU: -0.258
UCAGUGG: -0.0844
UCAUCGG: -0.191
AUUGGAG: 0.0533
AAUGUUC: -0.213
UUUCGUG: -0.431
CAGAAGG: 0.0551
CAGGGCU: 0.0986
CUCGCAG: -0.324
AUGUGUU: -0.34

A few entries again (block 3):
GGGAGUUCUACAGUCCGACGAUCGCUUGACUAACAGUCGAGGCAGUGAACUGGGUGUAGAAAGCGUCAGGAAAUGGCCACAUGUGUGGAUGGUUUAAUUAGAUUCUGUGGAGUCUCACAGUGGGAUUGUGGUUUGGAAUUCUCGGGUGCCAA: 1.25
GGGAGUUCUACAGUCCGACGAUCAGUGCUGGACUUGGCCAUGGGUAGUCUGCAGCUCAAUUUAUAGAACAGUCCAAAGAGACUUUGCAAAACAUGAUAGGCAGGGACCUUUUCCUCUGUGUUUCAAUACCUAUUGGAAUUCUCGGGUGCCAA: 0.57
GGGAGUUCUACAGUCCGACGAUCUUUGUAUGUUUAGUUUUGUGUCUCGUAACAGUGUUCACAUUUGUGAUUCUGAUGUCAGUAUUGUGUCACCUGAGCGGGAUGAUUACCUGAGUACCAUAGGAACUUUGUACUGGAAUUCUCGGGUGCCAA: 0.321
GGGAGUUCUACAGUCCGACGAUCGGAGUCGGAGCCCUGGGUCCGAAUGGACCCGCCUGCGGUCUGCAUCAGCCUCUGGGAAACCACAGCAGUGAUGCCAGCUGGGCACGUCAGGACCUCCCCACACACCCACAUGGAAUUCUCGGGUGCCAA: 0.725
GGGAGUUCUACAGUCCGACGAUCUGGCUGGUGUUGGUGACCCUGAUGUAUGGCAGAGCCCUUGGGGAGAAGAGACCCUGAGGGAAGGGCAAGGCUUUUCCUUUUUGGCUCUGGUUCCCAGGGUCAUCCGCCUUUGGAAUUCUCGGGUGCCAA: 0.407
